Assay results of several laboratories.
Every numbered part comes from another study and shows a few of its results, in no order.

Series 1
Target: Sal-like protein 4, full length isoform A (SALL4, Homo sapiens, UniProt Q9UJQ4, residues 1-1053)
UniProt Q9UJQ4, sequence (whole entry, looked up): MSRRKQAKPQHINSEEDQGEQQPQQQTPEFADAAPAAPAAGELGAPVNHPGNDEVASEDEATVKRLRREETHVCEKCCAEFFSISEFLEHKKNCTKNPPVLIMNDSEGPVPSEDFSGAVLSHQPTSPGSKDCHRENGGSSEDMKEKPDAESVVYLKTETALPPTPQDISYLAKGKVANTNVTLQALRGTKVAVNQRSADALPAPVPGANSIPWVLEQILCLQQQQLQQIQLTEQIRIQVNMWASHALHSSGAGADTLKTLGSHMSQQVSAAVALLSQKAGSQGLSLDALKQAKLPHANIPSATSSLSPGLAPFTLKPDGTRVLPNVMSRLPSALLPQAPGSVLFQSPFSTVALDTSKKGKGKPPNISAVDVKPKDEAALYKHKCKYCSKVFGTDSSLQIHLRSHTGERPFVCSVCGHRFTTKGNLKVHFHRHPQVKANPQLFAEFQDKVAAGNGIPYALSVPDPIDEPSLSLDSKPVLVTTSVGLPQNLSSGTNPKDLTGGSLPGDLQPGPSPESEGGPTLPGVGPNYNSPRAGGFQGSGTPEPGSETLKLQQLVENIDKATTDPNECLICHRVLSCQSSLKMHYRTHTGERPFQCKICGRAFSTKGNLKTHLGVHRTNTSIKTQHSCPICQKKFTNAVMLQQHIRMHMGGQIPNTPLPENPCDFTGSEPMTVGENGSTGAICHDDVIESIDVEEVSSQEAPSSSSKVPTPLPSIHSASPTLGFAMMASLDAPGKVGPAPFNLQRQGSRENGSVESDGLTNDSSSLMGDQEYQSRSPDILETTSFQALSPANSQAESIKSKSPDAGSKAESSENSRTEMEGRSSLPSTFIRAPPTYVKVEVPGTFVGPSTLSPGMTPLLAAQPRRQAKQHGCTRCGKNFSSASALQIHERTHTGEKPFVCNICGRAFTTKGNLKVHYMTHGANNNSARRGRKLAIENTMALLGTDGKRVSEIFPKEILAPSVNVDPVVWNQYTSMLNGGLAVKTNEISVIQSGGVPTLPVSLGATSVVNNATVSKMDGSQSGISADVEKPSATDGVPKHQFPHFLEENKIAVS
Method: universal PBM
Form: double-stranded DNA, one strand shown
Medium: in vitro
Tested at: 600 nM
Setting: 8-mer, flanks averaged, mean of replicates
Direction: higher = stronger binding
Quantity: E-score
AAGTTCTA: 0.103
CAGAAATG: 0.0676
AAAATCCG: 0.0225
CCCCCGTC: -0.312
CGGATCCG: -0.32

Series 2
Target: Histone acetyltransferase KAT6A, winged helix 1, GST fusion (KAT6A, Homo sapiens, UniProt Q92794, residues 1-85)
Method: protein binding microarray
Form: double-stranded DNA, one strand shown
Medium: in vitro
Tested at: not given
Setting: 8-mer, flanks averaged, mean of 2 arrays, mostly near background
Relative to: not given
Direction: higher = stronger binding
Quantity: E-score
Target sequence (chain): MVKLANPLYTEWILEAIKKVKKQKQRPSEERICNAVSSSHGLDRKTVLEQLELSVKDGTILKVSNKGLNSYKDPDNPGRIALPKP
GCTTGGCA: -0.22
ACCGTAAG: 0.206
TCTTAAAA: -0.255

Series 3
Target: Prothrombin, mature alpha-thrombin (F2, Homo sapiens, UniProt P00734)
Method: aptamer microarray, sandwich
Form: DNA with 2'F-ANA
Medium: in vitro
Tested at: 200 nM
Setting: whole 15-mer aptamer, many near background
Added: Cy3 exosite-II aptamer, 400 nM
Direction: higher = stronger binding
Quantity: mean fluorescence intensity
GGTTGGTGTGGTTGG (2'F-ANA at 2 5 7 10 11 12 14): 43.7 a.u.
GGTTGGTGTGGTTGG (2'F-ANA at 3 4 5 6 7 8 9 11 12 15): 143 a.u.
GGTTGGTGTGGTTGG (2'F-ANA at 2 3 5 6 8 9 13 14 15): 51.1 a.u.
GGTTGGTGTGGTTGG (2'F-ANA at 5 6 10 12 13 15): 46.8 a.u.

Further values, each from its own experiment
PhoQ, residues 284 288 289 292 302 303 TAVSDG
fold induction (PhoP, residues 12 14 15 18 19 LWHVM (Escherichia coli, UniProt P23836); Sort-seq, measured: YFP reporter; E. coli; PhoQ-PhoP variant library, added: 10 µM Mg2+; relative to: high Mg2+ state, higher = stronger signaling): 4.59

Some of these lines once more (series 1):
CAGAAATG: 0.0676
